{"data": "Experimental data from different studies", "note": "Protocols differ between the studies behind these lines. Values joined by “and” are separate records of one study, mostly repeats; a detail may differ. Numbers after ± are the reported error."}
{"SMILES": "Cc1cc(C)c(CNC(=O)c2cc(Cl)c3c(c2C)O[C@@](C)([C@H]2CC[C@H](N(C)C)CC2)O3)c(=O)[nH]1", "test": "item: Anemia", "system": "human patients", "setting": "oral, 200 mg once daily, 1 day onset day 14", "quantity": "patients with grade ≥3 TEAE", "result": "4.2%"}
{"SMILES": "Nc1ccn([C@@H]2CS[C@H](CO)O2)c(=O)n1", "system": "Tat+ transgenic mouse, plasma", "setting": "subcutaneous osmotic pump, dose not given, 5 d", "quantity": "drug concentration", "result": "501 ± 66.8 ng/mL"}
{"SMILES": "O=S(=O)(NCc1ccccn1)c1cc(Cl)c(Cl)cc1Cl", "system": "octanol/buffer", "setting": "pH 11, known kinase inactives set", "quantity": "logP", "result": 2.01}
{"SMILES": "O=C(O)CCC(=O)O.[2H]C([2H])([2H])Oc1cc(C)c2[nH]ccc2c1CN1CC[C@@H](C2CC2)C[C@H]1c1ccc(C(=O)O)cc1", "system": "healthy Chinese subjects", "setting": "600 mg, single ascending dose", "quantity": "TEAE urine leukocyte positive", "result": "0%"}
{"SMILES": "Cc1cc(NC2CCN(C(=O)OC3CCN(C(=O)/C=C/CN(C)C)C3)CC2)n2ncc(C(C)C)c2n1 (centres unmarked)", "test": "Phase I dose escalation CTCAE v4.0, item: ALT increased", "system": "patients with advanced solid tumours", "setting": "dose not given, TIW dosing any grade", "quantity": "patients with adverse event", "result": "18%"}
{"SMILES": "CCN1/C(=C/C(C)=O)Sc2ccc(F)cc21", "system": "cynomolgus monkey", "setting": "oral, 10 mg/kg, 6 h post-dose", "scale": "baseline: pre-dose", "quantity": "heart rate change", "result": "103 ± 26.7%"}
{"SMILES": "C=CC(=O)NC1CCN(c2ncc3ncnc(Nc4ccc(Oc5ccc6c(c5)ncn6C)c(C)c4)c3n2)CC1", "system": "healthy male volunteers, plasma", "setting": "intravenous, 10 µg, [14C] microtracer", "quantity": "dose-normalised AUC(0-t)", "result": "285 nmol·h/L/mg"}
{"SMILES": "N#Cc1ccc2c(c1)[C@H]1CCCN(C(=O)c3ccc4[nH]cnc4c3)[C@H]1C2", "system": "human females", "setting": "80 mg, end of trial", "quantity": "androstenedione", "result": "3.8 nmol/L"}
{"SMILES": "CNC(=O)n1ccc2cc(Oc3ccnc(NC(=O)c4ccc(C5CCN(CCO)CC5)cc4)c3)c(OCCOC)cc21", "system": "healthy human, plasma", "setting": "oral, 35 mg, fasted", "quantity": "AUC(0-72 h)", "result": "120 ng·h/mL"}
{"SMILES": "O=S(=O)(NCc1ccccn1)c1ccc(Cl)c(Cl)c1Cl", "system": "octanol/buffer", "setting": "pH 11", "quantity": "logP", "result": 2.19}
{"SMILES": "CNc1ccc(-c2nc3ccc(O)cc3s2)cc1 [carbon-11 labelled]", "test": "ex vivo biodistribution", "system": "APP/PS1 mouse, AD model, bone", "setting": "intravenous, 30 min", "quantity": "SUV", "result": "0.146 ± 0.051"}
{"SMILES": "O=C(Nc1nc2cccc(-c3ccc(CN4CCS(=O)(=O)CC4)cc3)n2n1)C1CC1", "system": "rheumatoid arthritis patients", "setting": "oral, 100 mg twice daily, 4 weeks, TEAE regardless of relatedness", "quantity": "patients with Constipation", "result": "0%"}
{"SMILES": "CN(C)CCNS(=O)(=O)c1ccc(N/C=C2\\C(=O)Nc3ccccc32)cc1", "system": "octanol/buffer, 40 mM buffer", "setting": "pH 11", "quantity": "logP", "result": 2.67}
{"SMILES": "CN[C@@H]1COc2c(S(=O)(=O)NC(=O)Nc3c4c(cc5c3CCC5)CCC4)cnn2C1", "system": "human", "setting": "concentration not given, day 35", "quantity": "ALT", "result": "158 U/L"}
{"SMILES": "Cc1cccc(CNC(=O)c2cn(CCNC(=O)c3ccccc3Sc3c([N+](=O)[O-])ncn3C)c3cc4c(cc3c2=O)OCO4)n1", "system": "cynomolgus monkey, whole blood", "setting": "1 µM, 1.5 h", "quantity": "remaining compound", "result": "87.9%"}
{"SMILES": "NC1(C(=O)N[C@@H](CCO)c2ccc(Cl)cc2)CCN(c2nc[nH]c3nccc2-3)CC1", "system": "human, plasma", "setting": "oral, 480 mg twice daily, added: enzalutamide 160 mg daily", "quantity": "dose-normalised Cmax", "result": "917 ng/mL and 561 ng/mL and 915 ng/mL and 640 ng/mL and 1430 ng/mL"}
{"SMILES": "CCn1c(=O)c(-c2cc(NC(=O)Nc3ccccc3)c(F)cc2Br)cc2cnc(NC)cc21", "test": "item: lipase increased", "system": "human, mild hepatic impairment", "setting": "oral, 50 mg single dose", "quantity": "participants with drug-related TEAE", "result": "62.5%"}
{"SMILES": "CC(=O)N(C)C1CCN(c2cc(F)cc(NC(=O)c3cc4c(F)ccc(C)c4[nH]3)c2)C1 (centres unmarked)", "system": "CD1 mouse", "setting": "oral, 50 mg/kg", "quantity": "CL/F", "result": "340 L/h/kg"}
{"SMILES": "CC(=O)c1ccc([C@H]2C[C@@]3(C)[C@@H](CC[C@@]3(O)C(F)(F)C(F)(F)F)[C@@H]3CCC4=CC(=O)CCC4=C32)cc1", "system": "human, pooled serum", "setting": "oral, 200 mg, day 1, 24 h", "quantity": "serum concentration", "result": "5.6 ng/mL"}
{"SMILES": "COc1cccc(OC)c1-c1cc(C(=O)NC2(C(=O)O)C3CC4CC(C3)CC2C4)nn1-c1ccc(C(=O)N(C)CCCN(C)CCCN(C)C(=O)CN2CCN(CC(=O)[O-])CCN(CC(=O)[O-])CCN(CC(=O)[O-])CC2)cc1C(C)C.[177Lu+3] (centres unmarked)", "system": "mouse HT-29 xenograft, large intestine", "setting": "168 h post injection, biodistribution", "quantity": "tissue uptake", "result": "0.08 %ID/g"}
{"note": "Repeated from above:"}
{"SMILES": "CNC(=O)n1ccc2cc(Oc3ccnc(NC(=O)c4ccc(C5CCN(CCO)CC5)cc4)c3)c(OCCOC)cc21", "system": "healthy human, plasma", "setting": "oral, 35 mg, fasted", "quantity": "AUC(0-72 h)", "result": "120 ng·h/mL"}
{"SMILES": "Nc1ccn([C@@H]2CS[C@H](CO)O2)c(=O)n1", "system": "Tat+ transgenic mouse, plasma", "setting": "subcutaneous osmotic pump, dose not given, 5 d", "quantity": "drug concentration", "result": "501 ± 66.8 ng/mL"}
{"SMILES": "N#Cc1ccc2c(c1)[C@H]1CCCN(C(=O)c3ccc4[nH]cnc4c3)[C@H]1C2", "system": "human females", "setting": "80 mg, end of trial", "quantity": "androstenedione", "result": "3.8 nmol/L"}
